# Measured values gathered from unrelated publications.
# Numbers after ± are the reported error.
# CES3: Carboxylesterase 3 (CES3, Homo sapiens, UniProt Q6UWW8)
# ERBB2: Receptor tyrosine-protein kinase erbB-2 (ERBB2, Homo sapiens, UniProt P04626)
# PPO3: PPO3 (Agaricus bisporus, UniProt C7FF04)
# C1-hpah: p-hydroxyphenylacetate 3-hydroxylase, reductase component (C1-hpah, Acinetobacter baumannii, UniProt Q6Q271)
# T1: dsDNA, mismatch bulge, abasic at position 8; chain GATGATANAAGACAT; chain ATGTCTTCTATCATC
# T2: DNA hairpin, hairpin, TTTT loop; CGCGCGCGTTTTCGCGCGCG
Structure (SMILES),target,test,system,setting,scale,endpoint,result
NCCCC[C@H](NC(=O)[C@H](CCCCN)NC(=O)[C@@H](N)CCCCN)C(=O)NCC(=O)NCC(=O)NCCCCCCCCNC(=O)COc1ccc(-c2ccccn2)cc1,"Calmodulin-1 (CALM1, Homo sapiens, UniProt P0DP23)","binding, quartz crystal microbalance",,"25 °C, no Ca2+",,apparent association constant,1e+06 ± 100000 M⁻¹
CCOC(=O)c1ccc(N2NC(=O)/C(=C/c3ccc([N+](=O)[O-])o3)C2=O)cc1,Luc-ODC reporter,"inhibitor, cycloheximide chase luciferase",human cells,concentration not given,,protein degradation,no effect
CCCCCCCC(=O)Nc1ccc(N(C)C)nc1C,CES3,substrate,,"50 µM, pH 8, 37 °C, enzyme purity 3%",,specific activity,< 1 pmol/min/µg
Cn1nnc(CN)c1C(F)(F)F,"DUSP3 (Homo sapiens, UniProt P51452)",ligand-observed 19F NMR,,"concentration not given, with: DUSP3 4 or 8 µM",,binding,active
NS(=O)(=O)c1ccc(-n2nc(C(F)(F)F)cc2-c2ccc(F)cc2F)cc1,"Prostaglandin G/H synthase 1 (Canis lupus familiaris, UniProt Q8HZR1)","TXB2 formation, inhibitor",clotting dog whole blood,"1 h, 37 °C",,IC80,133000 nM
N=C(N)NCCC[C@H](N)C(=O)N[C@@H](CC(=O)N[C@@H](Cc1ccccc1)C(=O)N[C@@H](CC(=O)O)C(=O)O)c1cccc2ccccc12,ERBB2,binding,BT-474,"45 min, 37 °C, with: FITC-5 50 µM",,displacement concentration,≤ 5 µM
COc1cc(F)c(C(C)C)cc1C1=C(CN2C(=O)O[C@H](c3cc(C(F)(F)F)cc(C(F)(F)F)c3)[C@@H]2C)CC(C)(C)CC1,"Cholesteryl ester transfer protein (Homo sapiens, UniProt P11597)",enzyme activity,"healthy male subjects, plasma","oral, 200 mg single dose",,time of maximum inhibition,7 h
CNc1ccccc1C(=O)O[C@H]1C[C@H](n2cnc3c(N)ncnc32)O[C@@H]1COP(=O)(O)OP(=O)(O)O,"Unconventional myosin-Va (Gallus gallus, UniProt Q02440, D297C/G292C/I296C/S293C/V295G)",stopped-flow FRET,,"4 °C, with: MgCl2 10 mM",,pocket forward rate constant,0.11 ± 0.01 s⁻¹
O=C([O-])CN(CCN(CC(=O)[O-])Cc1cc(CCC(=O)NCCCCCC(=O)NCCCC[C@H](NC(=O)N[C@@H](CCC(=O)O)C(=O)O)C(=O)O)ccc1O)Cc1cc(CCC(=O)O)ccc1[O-].[68Ga+3],"FOLH1 (Homo sapiens, UniProt Q04609)",PET/CT,"prostate cancer patients, primary prostate cancer lesions",,baseline: primary lesions over salivary glands,tumour-to-normal tissue ratio,2.2 ± 1.96
CC(=O)Nc1ccc(O)c(SC[C@H](NC(=O)CC[C@H](N)C(=O)O)C(=O)NCC(=O)O)c1,"ABCC4 (Homo sapiens, UniProt O15439)","LTC4 transport, inhibitor",inside-out membrane vesicles,with: LTC4,,IC50,> 300000 nM
CC[C@H](C)[C@H](NC(=O)[C@H](CCCCN)NC(=O)[C@H](CCCCN)NC(=O)[C@@H](NC(=O)[C@H](CCC(=O)O)NC(=O)[C@H](C)NC(=O)[C@H](CCC(=O)O)NC(=O)[C@H](CO)NC(=O)[C@H](CC(C)C)NC(=O)[C@H](CC(=O)O)NC(=O)[C@H](CC(C)C)NC(=O)CNC(=O)[C@H](CCCNC(=N)N)NC(=O)[C@H](CC(C)C)NC(=O)[C@H](CO)NC(=O)CNC(=O)CNC(=O)CNC(=O)CCCC[C@@H]1SC[C@@H]2NC(=O)N[C@@H]21)C(C)C)C(=O)N[C@@H](CC(C)C)C(=O)N[C@@H](CC(=O)O)C(=O)N[C@@H](CCC(=O)O)C(=O)N[C@H](C(=O)N[C@H](C(=O)N[C@@H](CCCCN)C(=O)N[C@@H](CC(=O)O)C(=O)O)C(C)C)[C@@H](C)CC,Fab B11 antibody (human),"binding, biolayer interferometry",,,baseline: alanine mutant over wild type,Kd ratio,1.9
CN(C)CCCNc1nc2cc(N)ccc2nc1NCc1ccccc1,"T1, dsDNA, mismatch bulge, abasic at position 8",fluorescence quenching titration,,"pH 7.0, 25 °C",,Kd,860 nM
CCCC[C@H](NC(=O)CNC(=O)CNC(=O)CN1CCN(CC(=O)O)CCN(CC(=O)O)CCN(CC(=O)O)CC1)C(=O)N[C@H]1CC(=O)NCCCC[C@@H](C(N)=O)NC(=O)[C@H](Cc2c[nH]c3ccccc23)NC(=O)[C@H](CCCNC(=N)N)NC(=O)[C@@H](Cc2ccccc2)NC(=O)[C@H](Cc2c[nH]cn2)NC1=O [gallium-67 labelled],"Mc1r (Mus musculus, UniProt Q01727)",,mouse B16-F1 tumour,"dose not given, 2 h, with: NDP-MSH 6.07 nmol",,tumour uptake reduction,~96.3%
CC[C@H](C)[C@H](NC(=O)CNC(=O)[C@H](CCCNC(=N)N)NC(=O)[C@H](CCCCN)NC(=O)CNC(=O)[C@H](CC(N)=O)NC(=O)CNC(=O)CNC(=O)CNC(=O)[C@H](CC(C)C)NC(=O)[C@H](C)NC(=O)CNC(=O)[C@H](Cc1c[nH]c2ccccc12)NC(=O)[C@H](Cc1ccc(O)cc1)NC(=O)CNC(=O)[C@H](CCCNC(=N)N)NC(=O)[C@H](CCSC)NC(=O)CNC(=O)[C@H](CCCCN)NC(=O)[C@H](CC(N)=O)NC(=O)[C@H](Cc1ccccc1)NC(=O)[C@H](CCCCN)NC(=O)[C@@H](N)CC(N)=O)C(=O)N[C@@H](CCSC)C(=O)NCC(=O)N[C@@H](Cc1ccc(O)cc1)C(=O)N[C@@H](CC(=O)O)C(=O)O,ERBB2,"binding, SPR",,,,koff,0.0121 s⁻¹
CCOC(=O)[C@H](CCCNC(N)=O)NC(=O)[C@H](Cc1c[nH]c2ccccc12)NC(=O)[C@@H]1CCCCN1C(=O)[C@H](Cc1ccccc1)N(C)C(=O)CCl,"PIN1 (Homo sapiens, UniProt Q13526)",,PaTu 8988t,"single treatment, with: BJP-DTB probe",,time to loss of engagement,≤ 72 h
CC(C)C[C@H](NC(=O)[C@H](CC(C)C)NC(=O)[C@H](CCC(=O)O)NC(=O)[C@@H](N)CS)C(=O)O,PPO3,"enzyme activity, inhibitor",,200 µM,,remaining activity,40.6%
CC(=O)[C@]12NC(C)(C)C[C@@]1(C)C(=O)C1=C2c2c(c3c4n2C(C)(C)CC2=C4[C@@]4(CC(C)(C)N[C@@](C)(C4)C2=O)CC3(C)C)C(=O)C(C)(C)N1 (racemic),"OPRK1 (Homo sapiens, UniProt P41145)","agonist, cAMP",CHO,concentration not given,,agonist activity,inactive
C[C@]12CC[C@@H]3c4ccc(O)c(I)c4CC[C@H]3[C@@H]1CCC2=O,"AKR1C1 (Homo sapiens, UniProt Q04828)","enzyme activity, inhibitor, absorbance",,"100 µM, pH 9",,inhibition,10%
[Ru+2].[Ru+2].c1cnc2c(c1)c1nc(-c3ccc(OCCOCCOc4ccc(-c5nc6c7cccnc7c7ncccc7c6[nH]5)cc4)cc3)[nH]c1c1cccnc12.c1cnc2c(c1)ccc1cccnc12.c1cnc2c(c1)ccc1cccnc12.c1cnc2c(c1)ccc1cccnc12.c1cnc2c(c1)ccc1cccnc12,"T2, DNA hairpin, hairpin, TTTT loop",BLI,,"pH 7.04, Na+ 100 mM",,Kd,1600 nM
O=C(c1cc2c(s1)CCCCC2)N1CCC(n2c(=O)[nH]c3ccccc32)CC1,"Trpc6 (Mus musculus, UniProt Q61143)","ion current, agonist, outside-out patch clamp",HEK293,"1 µM, holding -60 mV",,single-channel conductance,~35 pS
O=C(CN1CCOc2ccccc21)N(c1ccc(F)cc1)c1ccc(F)cc1,"Proteasome subunit alpha type-2/Proteasome subunit alpha type-6, 20S proteasome (Homo sapiens, UniProt P25787+P60900)","proteolysis, activator, fluorogenic peptide",purified 20S proteasome,"with: Suc-LLVY-AMC, Z-LLE-AMC, Boc-LRR-AMC",,EC200,8 ± 0.6 µM
O=C(O)CCc1ccc(O)cc1,C1-hpah,ITC,,pH 7,,ΔH,-5.28 ± 0.01 kcal/mol
CCN(CC)C(=O)c1ccc(O)c(OC)c1,"Heat shock protein HSP 90-alpha, N-terminal domain (HSP90AA1, Homo sapiens, UniProt P07900)","binding, ligand-observed NMR titration",,ligand to protein ratio 125,,bound ligand fraction,0.49 mol %
CSCC[C@H](NC(=O)[C@H](CC(C)C)NC(=O)[C@H](Cc1c[nH]cn1)NC(=O)CNC(=O)[C@@H](NC(=O)[C@H](C)NC(=O)[C@H](Cc1c[nH]c2ccccc12)NC(=O)[C@H](Cc1c[nH]cn1)NC(=O)[C@H](CC(N)=O)NC(=O)CNC(=O)[C@H](CCCNC(=N)N)NC(=O)[C@@H]1CCCN1C(=O)[C@H](Cc1ccc(O)cc1)NC(=O)[C@H](CCSC)NC(=O)[C@H](CC(C)C)NC(=O)[C@@H](NC(=O)[C@H](CC(C)C)NC(=O)[C@@H](NC(=O)[C@@H](NC(=O)CNC(=O)CNC(=O)CNC(=O)[C@H](C)NC(=O)[C@@H]1CCCN1C(=O)[C@H](CC(C)C)NC(=O)[C@@H]1CCCN1C(=O)[C@@H](N)C(C)C)[C@@H](C)O)C(C)C)[C@@H](C)O)C(C)C)C(N)=O,"GRPR (Homo sapiens, UniProt P30550, R287A)",calcium mobilization,,,baseline: R287A mutant over wild type,fold decrease in potency,51 fold
CC(C)C[C@H](NC(=O)[C@@H]1CCCN1)C(=O)N[C@@H](CO)C(=O)N[C@@H](CC(C)C)C(=O)N[C@@H](CCCNC(=N)N)C(=O)N[C@@H](CO)C(=O)N[C@@H](CCCCN)C(=O)O,"MMP9 (Homo sapiens, UniProt P14780)","substrate, HPLC",,"500 µM, 72 h, pH 7.5, 37 °C",,hydrolysis product,74%
O=C(O)Cc1ccccc1O,C1-hpah,ITC,,pH 7,,ΔH,-8.78 ± 0.91 kcal/mol
Nc1ncnc2c1ncn2C1OC(COP(=O)(O)OP(=O)(O)OCC2OC(O)C(O)C2O)C(O)C1O (stereo not drawn),"TRPM2 (Nematostella vectensis, UniProt A7T1N0, R329A)","channel activation, agonist, inside-out patch clamp",,"R329A, 2.5 µM PIP2, with: 125 µM Ca2+",baseline: wild type,EC50 fold increase,> 1000 fold
CCCCCC(=O)Nc1ccc(OC)nc1C,CES3,substrate,,"50 µM, pH 8, 37 °C, enzyme purity 3%",,specific activity,2.3 pmol/min/µg
OCC1CCCN(CCNc2cc(-c3ccccc3)nc3ccnn23)C1 (stereo not drawn),"DNA dC->dU-editing enzyme APOBEC-3B, C-terminal domain (Homo sapiens, UniProt Q9UH17)","binding, 1H CPMG NMR",,20 µM protein,,signal attenuation,55 ± 7.9%
Cn1nc(C(=O)NCc2ccc(C(=O)O)cc2)cc1-c1ccc2[nH]c(C(=O)O)cc2c1,"Collagenase 3 (MMP13, Homo sapiens, UniProt P45452)","inhibitor, FRET",,"concentration not given, catalytic domain",,enzyme activity,inactive
CC(C)C[C@H](NC(=O)[C@H](CCC(=O)O)NC(=O)[C@@H](N)CS)C(=O)N[C@@H](CC(N)=O)C(=O)O,PPO3,"enzyme activity, inhibitor",,50 µM,,remaining activity,81.5%
Cc1cc(N2CC[C@](C#N)(C3(C)CC3)C2=O)cc(C(=O)NCc2cc(F)cc(-c3cnn(C)c3)c2)n1,"Proline--tRNA ligase (Plasmodium falciparum, UniProt Q8I5R7)",thermal shift,,with: L-proline and ATP 2 mM,,melting temperature,70.8 °C
CC1=C(/C=C/C=C\C=C\C(C)=C\C=O)C(C)(C)CCC1,"Rhodopsin, apoprotein (opsin) (RHO, Bos taurus, UniProt P02699)","regenerated pigment stability, thermal shift, BFC probe",ROS disk membranes,,,melting temperature,70.1 °C
C=C1C(=O)O[C@@H]2[C@H]3C(CO)=CC(=O)C3=C(C)C[C@H](OC(=O)Cc3ccc(O)cc3)[C@@H]12,"MAL12 (Saccharomyces cerevisiae S288c, UniProt P53341)",fluorescence quenching,,310 K,,Stern-Volmer constant,9110 L/mol
Cc1ncsc1-c1ccc([C@@H]2CCCCCCNC(=O)C[C@@H]3N=C(c4ccc(cc4)OCCCCCC(=O)N[C@@H](C(C)(C)C)C(=O)N4C[C@H](O)C[C@H]4C(=O)N2)c2c(sc(C)c2C)-n2c(C)nnc23)cc1,"Bromodomain-containing protein 4, long isoform (BRD4, Homo sapiens, UniProt O60885)","degrader, immunoblotting",PC-3,"100 nM, 2 h, long isoform",,degradation,82%
CSCC[C@H](NC(=O)[C@H](CO)NC(=O)[C@@H](NC(=O)[C@H](CCC(N)=O)NC(=O)[C@@H](CCCNC(=N)N)NC(=O)[C@@H](CCCNC(=N)N)NC(=O)[C@@H](CCCCN)NC(=O)[C@@H](CCCNC(=N)N)NC(C)=O)[C@@H](C)O)C(=O)N[C@H](C(=O)N[C@@H](CC(=O)O)C(=O)N[C@@H](Cc1ccccc1)C(=O)N[C@@H](Cc1ccc(O)cc1)C(=O)N[C@@H](Cc1c[nH]cn1)C(=O)N[C@@H](CO)C(=O)N[C@H](CCCCN)C(=O)N[C@H](CCCNC(=N)N)C(=O)N[C@H](CCCNC(=N)N)C(N)=O)[C@@H](C)O,"PCNA (Homo sapiens, UniProt P12004)","binding, isothermal titration calorimetry",,"pH 7.4, 25 °C, 300 mM NaCl, with: p21 peptide",,entropic term −TΔS,12 ± 0.717 kcal/mol
